Measurements collected from several papers.
Parts stem from different laboratories: compare values within a part only.

Sample 1 — technique: RNA Bind-n-Seq; molecule type: RNA; medium: in vitro; tested at: 200 nM; notes: whole 134-nt RNA, ends assumed; together with: 150 mM KCl; relative to: input library; reading: higher = stronger binding; endpoint: log2 enrichment
Target: Fragile X messenger ribonucleoprotein 1, C-terminal low-complexity region (Fmr1, Mus musculus, UniProt P35922)
All sequences stand within: GGGAGUUCUACAGUCCGACGAUC … UGGAAUUCUCGGGUGUCAAGG
UUAUUCUGUGUGACACCUGCCCUCGUGCCUACCACCUCGUCUGCCUUGAUCCUGAGCUUGACCGGGCUCCAGAGGGCAAAUGGAGCUGCC: 0.707
UGUCUUUCCUGGUGACUAGGAUGUCGUCGGAGGAGGACAAGAGCGUGGAGCAGCCGCAGCCGCCGCCACCACCCCCCGAGGAGCCUGGAG: -0.401
UCAAGUCCUGUGCUACACAUCGUAUGUACCGAAUCGGGAAAAAGGGAGGGUGGGAAAGUAUUAUGUUACGCCGUUCGGAUCUGCACUUCC: 1.19
AGUCCUGUGCUACACAUCGUAUGUACCGAAUCGGGAAAAAAAGGGAAAAAGGGUGGGAAAGUAUUAUGUUACGCCGUUCGGAUCUGCACU: 0.352
CACAGACAACACGCACCCAAACAGACACAGAGGGAAGGGGUUGGGAUGGGGACAGGGUGCACAGCAGGGCGGGGUAGGACCCCAGCCCCU: 1.27
GUCCUGUGCUACACAUCGUAUGUACCGAAUCGGGGUUUUUGGGGUUUGGGGUUUGGGGAAAGUAUUAUGUUACGCCGUUCGGAUCUGCAC: 1.05
GCAGGAAGUAAAAACAAAUGGAAAUGCUUCGGAUAGUGGCAGGGGUGGGGGUUGCUAAGGAAAGGGUGGGAUGGGAGUGGUUAAAGAGUU: 0.255
UCCUGUGCUACACAUCGUAUGUACCGAAUCGGGUUUUUUGGUUUUUUGGGGUUUUUUGGAAAGUAUUAUGUUACGCCGUUCGGAUCUGCA: -0.0535
AAGUCCUGUGCUACACAUCGUAUGUACCGAAUCGGGGUUUGGGUUUGGGGUUUGGGGAAAGUAUUAUGUUACGCCGUUCGGAUCUGCACU: 0.721
UGGCCCUGGUGGCAUGCGGGGAGGAAGAGGUGGCCUCAUGGAUCGUGGUGGUCCCGGUGGAAUGUUCAGGGGUGGCCGUGGUGGAGACAG: 0.177
CACAGACAACACGCACCCACACAGACACAGAGGGAAGGGGUUGGGAUGGGGACAGGGUGCCCAGCAGGGCGGGGUAGGACCCCAGCCCCU: 1.22
CCUCAAGUCCUGUGCUACACAUCGUAUGUACCGAAUCGGGAGGGUGGGAGGGAAAGUAUUAUGUUACGCCGUUCGGAUCUGCACUUCCAG: 1.62
UCAAGUCCUGUGCUACACAUCGUAUGUACCGAAUCGGGGUUGGGGUUGGUUGGGGAAAGUAUUAUGUUACGCCGUUCGGAUCUGCACUUC: 0.824
CUCAAGUCCUGUGCUACACAUCGUAUGUACCGAAUCGGGGUGGGGUGGGGUGGGAAAGUAUUAUGUUACGCCGUUCGGAUCUGCACUUCC: 0.966

Sample 2 — technique: RNA Bind-n-Seq; molecule type: RNA; medium: in vitro; tested at: 365 nM; relative to: no-protein control; reading: higher = stronger binding; endpoint: RBNS enrichment (R)
Target: RNA binding protein fox-1 homolog 2, RRM domain, GST-SBP tag (RBFOX2, Homo sapiens, UniProt O43251-10, residues 100-194)
Notes: natural RNA segment, single round, ends assumed
All sequences stand within: GGGAGUUCUACAGUCCGACGAUC … UGGAAUUCUCGGGUGCCAA
Construct (chain): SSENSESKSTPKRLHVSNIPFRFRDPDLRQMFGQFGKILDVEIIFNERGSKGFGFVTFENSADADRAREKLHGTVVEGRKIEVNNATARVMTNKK
GCAGAUAAACUGAUGUUUGAAAUUCGCUGAAAUACUUAAUGUGGAAUAGGAUAAUAUACUUCCAAUGCCCUCAAGGCUGUGACCUUACAGCCAUUUUACAUAGCACAUCA: 0.791
AACAUCAGCCUUGGGUGGUGUGUUCCUAUAUAAACUCCAAAGGGAAACACACCGACUGCCUCAGCAAUCAUGCAAAGACCUUGCCUGGCCCGGUGGCAAGCGCUGAAAAA: 0.321
CUCUGUUCCAAACAGGCCAGUGGAGUCCUGAAAGUAAGCAGAGAAAGCGCUCAUUCAGCUUGGCAGGAUGCUCAGCAAACCCUGCUUUCUGCAUAACCACCACCAAUCCC: 0.297
GUAAGACAAAAACACCAGGAAGCAGGAUUCCGUGCCCAUCUCUGCAGUUUGGGUUCACAAAAGGGGGUGCCGUCAUCCCUGGGUGGAGGAGGGAGUGUUGGUUUUUUGUU: 0.445
AGCUUGCCACUCGGCUAGCGAAAAUAAUUAACAUUAUUAUGAGAAAGUGGAUUUAUCUAAAGUGGAACCAGCUGACAUUAUAUCUGUAUCGUAUGGAGAAUGAUGAAGGG: 0.324
GUAACAUUUACCCACAACCUGGCUCGGCACUGGAUGAAAUUCUACAAGGUGAGUGGAGUGUAAAACUGGUCAGCCCUUGGAGAGACUUCUUGGUUGUGUCACCCCCAAAG: 0.339
AUUUCAACAUGAAAAUUAUGUCAGUUUAUAGAAAUAUUUAUUGUUCAAGGUCUGUAAUUGUAUUUCAAAAACGAUGUCGUAUUCAAGUUGUGAAGGGAUUUGUUUUGUCA: 0.6
AAAUCACUGCCUCAUUCUUAUUUCAAGAUGAAUUUCUAUACAGACUAGAUGUUUUUCUGAAGAUCAAUUAGACAUUUUGAAAAUGAUUUAAAGUGUUUUCCUUAAUGUUC: 0.383
AAGAAUUUCUGAACUAACACUUGAAAUCACAUUUUAUAAAGAUUGUUGGUACUCAGAGUUGUAUUUGCAGCAGAAAAUGCAGAAUAACCCAGAAAUGGAGCCCGGAGCCC: 0.286
UAGCAGACAGGCAGGGGAUGCAAACGGCUGCCGGGCCACCUCUCCCCUCUCACAAACCAUAUAAACACAGGGAGGGGCUUUCUCACCACUUCUGAGGAGACUGUACAGCC: 0.724
GGGUGAAAUGAUUGACUUGUGACCUGCCAGGUUGCCCGAUGCCCUGUUGGGUCACCGGCUGGACCUGCUGCAGCCUGCAGAGCCACAGUCAGCCUGCCCACAUGCCACCG: 0.191
GUCCUGACCAGAGUCUCAGUGGUCCUGACCCCCAAUGUGGGCAGGGGCUGGGCAGGAGGGUGGGGUCUGCUGUGGGUUCAGAGGACUCCACCUCCUGGCUGGUUUACCUG: 0.555

Sample 3 — technique: protein-binding microarray; molecule type: double-stranded DNA, one strand shown; medium: in vitro; tested at: not given; reading: higher = stronger binding; endpoint: E-score
Target: Protein C-ets-1 (ETS1, Homo sapiens, UniProt P14921, residues 1-441, full length assumed)
Notes: k-mer, scored over probes, only values ≥0.25
Construct (chain): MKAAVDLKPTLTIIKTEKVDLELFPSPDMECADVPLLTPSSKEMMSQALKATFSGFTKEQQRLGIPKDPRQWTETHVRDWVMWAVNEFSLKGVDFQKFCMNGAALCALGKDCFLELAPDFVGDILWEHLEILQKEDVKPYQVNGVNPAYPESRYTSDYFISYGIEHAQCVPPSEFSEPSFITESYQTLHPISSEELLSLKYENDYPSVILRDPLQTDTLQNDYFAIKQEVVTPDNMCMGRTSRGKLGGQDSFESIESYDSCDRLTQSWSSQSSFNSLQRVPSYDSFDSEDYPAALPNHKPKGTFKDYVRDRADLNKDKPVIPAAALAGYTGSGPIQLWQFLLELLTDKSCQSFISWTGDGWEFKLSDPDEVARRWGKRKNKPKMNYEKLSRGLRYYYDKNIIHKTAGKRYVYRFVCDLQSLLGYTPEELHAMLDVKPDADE
ACGTCCTG: 0.401
CCGGTCCG: 0.379
GACAGGAA: 0.468
AACAGGAT: 0.444
AGGAACTG: 0.293
GAAACATC: 0.33
AATTTCCT: 0.457
CGGATACG: 0.447
TGTAGGAA: 0.256
CCTTCCTC: 0.363
GGAAGGTA: 0.316
TGACGGAA: 0.335
CCGTTTCC: 0.443
CAGGTTTC: 0.312
CAGATCCA: 0.308
ACCAGGAA: 0.344
CCGGTAAC: 0.315
AGACATCC: 0.397
GGGTAGGA: 0.271
GCACGTCC: 0.297
CCGGTAGG: 0.255
CACGGAAA: 0.367
ACCGACAG: 0.26
GGAAGTAC: 0.457

Sample 4 — technique: RNA Bind-n-Seq; molecule type: RNA; medium: in vitro; tested at: not given; notes: RNA with constant flanks, ends assumed; relative to: input RNA pool; reading: higher = stronger binding; endpoint: bound/input enrichment
Target: RING finger protein unkempt homolog, zinc fingers 1-6, GST-SBP tag (UNK, Homo sapiens, UniProt Q9C0B0, residues 30-357)
UniProt Q9C0B0, sequence (30-357, looked up): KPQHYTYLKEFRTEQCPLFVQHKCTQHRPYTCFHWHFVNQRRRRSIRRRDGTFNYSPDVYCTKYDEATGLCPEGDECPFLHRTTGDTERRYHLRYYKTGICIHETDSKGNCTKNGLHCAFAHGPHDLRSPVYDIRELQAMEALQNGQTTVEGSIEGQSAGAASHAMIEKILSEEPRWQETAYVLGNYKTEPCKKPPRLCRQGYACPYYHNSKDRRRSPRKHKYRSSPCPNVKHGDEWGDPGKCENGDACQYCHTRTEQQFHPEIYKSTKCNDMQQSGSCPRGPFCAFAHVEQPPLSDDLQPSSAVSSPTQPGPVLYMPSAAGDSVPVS
All sequences stand within: GGGAGUUCUACAGUCCGACGAUC … CAACAGAGGAUUGAGCAUCA
AUAUCCAUAUAUACCUUCCAGUGUUCACACAGGAUGGGGUUCCCAGCCUUGCAUGGUUGCCCGGUUGGGGGCAGGCCCAGUCUGCUCAAGGCCCACGAUGAUCUUGGUGCUCCAGGCAGG: 0.131 ratio
UAGCUCUCCCUGUGCUAACUGCCUGCGCCUUGACAGCCGGGCUGCGCAAAGCAGAGGGAUCCGUUGGGACCUGCCUUGGUGACCCCAUGGCAUCCCCACGAACCAUAACUAUCAUGGCCC: 0.0697 ratio
UGUGGCUUUAACAUUUUCUGCAACUAUUUAUGAAGACUUCUGUUAUACAUGUAAUAAAUAUACCGAAAAAGCACAUACUUCGCAAGUGAGCUUUAUGGUUCUGUGUGUGUUGGGGGUGGG: 0.582 ratio
AAAAAACAACAGUUUUGUUGGCAUGUGAAGCUCCAGUUUCCUCAAAGUCAAGCUGAGUACACCGAAAAAAGAGUACCAGAUGAUAAAACUAUUAAUGAAAUCCUAAAACCUUACAUUGAU: 0.0964 ratio
GCACUAGGGUAGAGAGAAAGCGGCACCAGCCAACGGCCUCUGUGCACGUGUGUGCUCCCGCCGCUCAGAGCAGCAAGAAGAAAUGGUUUCCUAUCUGCUGAGGCAAGGGAUGGCACUCGG: 0.321 ratio
CUCUGUAAACAGUUUGGUUCUUAGUCCUUCUCUUGUACAAAUGAUGUACUUUGAAGACCGUCCGUGUAUAACAGAGUUGUUUGUUUCCUCUUUGAUUUUAAACAGAGAAAAUAAAAGGAG: 0.275 ratio
AACAACAAAAAACCCCAAGGAACCUAAUAACCUUUUUGAAAAACAAAAUAAUGAGAAUUUUCCGUGAUAUAUUUCUUAUUUGACAGAAUAAGGUGUCUGGAGGGGGUCCUGUACUCAUCC: 0.362 ratio
GCCAGCAAGAACGAGGAGGACGCGGGAAAAAUGUUCGUUGGUGGCCUGAGCUGGGAUACCCGCAAAAAAGAUUUAAAAGACUAUUUUACUAAAUUUGGAGAGGUCGUUGACUGUACAAUA: 0.966 ratio
GAGGUCCUGAGGCAGGAAGACAAAGCUGAAGCUAUGUCUGGCCACAUUGAUCAGUUUCUGACCGCAACAUUCAUGCAGCUAAGACUCAUCUACAGCACACACAUGGCAGAUGAGAAGUUG: 0.213 ratio
UCCGCUCGGAAAAUGCGCCUGGGAGAUGCUGUUGAACAGGGUGUGAUUAAUAACACAGUAUCCGGCUAUUUCAUUGGCCGCAUCUACCUCUACCUCACGAAGGUUGGAAUAUCUCCAGAU: 0.0977 ratio
CCAUUUGAUCCUAGAGUUCUCUUCUCUGCUGGUCAUGAUGGAAAUGUGAUAGUGUGGGAUCCCGCAAGAGGAGUCAAAGUUCGAUCUUAUUUCAAUAUGAUUGAAGGACAAGGACAUGGU: 0.21 ratio

Some of these lines once more (sample 3):
AACAGGAT: 0.444
AGGAACTG: 0.293
GAAACATC: 0.33
AATTTCCT: 0.457
CGGATACG: 0.447
TGTAGGAA: 0.256
CCTTCCTC: 0.363
